Measured values of several laboratories.
Every numbered part comes from another study and shows a few of its results, in no order.
Chain of UniProt O14965 (whole entry, looked up): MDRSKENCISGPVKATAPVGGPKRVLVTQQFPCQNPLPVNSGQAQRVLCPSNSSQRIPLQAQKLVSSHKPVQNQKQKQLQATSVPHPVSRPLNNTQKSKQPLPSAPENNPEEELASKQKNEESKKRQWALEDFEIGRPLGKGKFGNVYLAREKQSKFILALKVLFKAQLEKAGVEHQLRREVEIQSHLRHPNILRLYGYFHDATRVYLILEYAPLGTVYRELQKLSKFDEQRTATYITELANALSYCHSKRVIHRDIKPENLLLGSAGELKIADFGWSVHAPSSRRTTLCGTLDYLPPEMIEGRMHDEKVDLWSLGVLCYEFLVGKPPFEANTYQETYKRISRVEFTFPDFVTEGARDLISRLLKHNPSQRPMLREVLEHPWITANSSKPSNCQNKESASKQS
Chain of UniProt Q8IW41 (whole entry, looked up): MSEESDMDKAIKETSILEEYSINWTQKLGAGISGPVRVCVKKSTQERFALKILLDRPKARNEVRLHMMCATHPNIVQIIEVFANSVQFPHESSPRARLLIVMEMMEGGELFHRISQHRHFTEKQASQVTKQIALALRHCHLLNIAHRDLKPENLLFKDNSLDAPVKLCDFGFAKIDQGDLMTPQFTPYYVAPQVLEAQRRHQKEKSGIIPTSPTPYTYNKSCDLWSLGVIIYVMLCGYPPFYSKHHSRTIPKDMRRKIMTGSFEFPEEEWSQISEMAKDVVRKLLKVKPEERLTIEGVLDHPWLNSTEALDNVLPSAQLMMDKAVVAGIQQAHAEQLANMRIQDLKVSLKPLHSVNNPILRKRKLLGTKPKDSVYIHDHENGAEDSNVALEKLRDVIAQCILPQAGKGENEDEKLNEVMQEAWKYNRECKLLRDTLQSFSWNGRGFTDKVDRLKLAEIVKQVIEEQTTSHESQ
Chain of UniProt Q9H2G2 (whole entry, looked up): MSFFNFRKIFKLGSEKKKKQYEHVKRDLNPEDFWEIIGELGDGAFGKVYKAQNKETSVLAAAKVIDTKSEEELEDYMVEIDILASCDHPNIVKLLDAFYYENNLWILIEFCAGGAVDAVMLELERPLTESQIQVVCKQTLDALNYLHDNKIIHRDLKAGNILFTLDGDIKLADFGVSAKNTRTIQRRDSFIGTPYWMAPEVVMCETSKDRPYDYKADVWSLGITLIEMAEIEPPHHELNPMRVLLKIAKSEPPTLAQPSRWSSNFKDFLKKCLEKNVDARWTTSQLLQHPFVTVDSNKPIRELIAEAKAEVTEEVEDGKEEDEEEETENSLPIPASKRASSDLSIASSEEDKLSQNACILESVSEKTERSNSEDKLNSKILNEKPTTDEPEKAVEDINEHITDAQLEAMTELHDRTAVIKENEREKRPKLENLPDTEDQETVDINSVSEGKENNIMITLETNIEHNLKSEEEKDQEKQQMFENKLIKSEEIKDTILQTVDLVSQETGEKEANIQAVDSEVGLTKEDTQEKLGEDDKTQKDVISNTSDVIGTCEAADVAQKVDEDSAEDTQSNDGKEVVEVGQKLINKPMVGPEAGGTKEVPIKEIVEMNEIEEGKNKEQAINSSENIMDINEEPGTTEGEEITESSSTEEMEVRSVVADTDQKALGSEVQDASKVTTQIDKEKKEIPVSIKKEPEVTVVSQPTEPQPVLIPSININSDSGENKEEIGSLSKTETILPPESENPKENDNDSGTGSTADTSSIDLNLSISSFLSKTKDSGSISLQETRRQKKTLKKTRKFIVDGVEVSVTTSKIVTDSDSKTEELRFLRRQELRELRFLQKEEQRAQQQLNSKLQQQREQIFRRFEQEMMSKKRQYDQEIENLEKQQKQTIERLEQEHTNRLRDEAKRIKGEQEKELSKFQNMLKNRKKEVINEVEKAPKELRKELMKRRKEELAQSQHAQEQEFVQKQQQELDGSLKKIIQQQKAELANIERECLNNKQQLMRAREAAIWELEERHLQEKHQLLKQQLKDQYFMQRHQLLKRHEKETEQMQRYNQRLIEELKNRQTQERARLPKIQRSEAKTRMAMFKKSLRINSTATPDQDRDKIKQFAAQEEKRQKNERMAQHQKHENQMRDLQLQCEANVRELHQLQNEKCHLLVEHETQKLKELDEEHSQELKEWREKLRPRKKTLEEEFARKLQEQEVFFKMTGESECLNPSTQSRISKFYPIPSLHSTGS
Chain of UniProt Q00526 (whole entry, looked up): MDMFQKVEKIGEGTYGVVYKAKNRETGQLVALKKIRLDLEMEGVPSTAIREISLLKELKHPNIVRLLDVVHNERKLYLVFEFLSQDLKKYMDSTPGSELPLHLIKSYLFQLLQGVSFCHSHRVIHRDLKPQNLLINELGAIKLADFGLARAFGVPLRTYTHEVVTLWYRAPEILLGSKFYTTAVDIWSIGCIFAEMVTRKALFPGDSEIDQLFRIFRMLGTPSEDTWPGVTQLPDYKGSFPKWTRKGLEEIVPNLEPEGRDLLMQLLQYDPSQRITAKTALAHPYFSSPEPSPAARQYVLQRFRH
Chain of UniProt Q96J92 (whole entry, looked up): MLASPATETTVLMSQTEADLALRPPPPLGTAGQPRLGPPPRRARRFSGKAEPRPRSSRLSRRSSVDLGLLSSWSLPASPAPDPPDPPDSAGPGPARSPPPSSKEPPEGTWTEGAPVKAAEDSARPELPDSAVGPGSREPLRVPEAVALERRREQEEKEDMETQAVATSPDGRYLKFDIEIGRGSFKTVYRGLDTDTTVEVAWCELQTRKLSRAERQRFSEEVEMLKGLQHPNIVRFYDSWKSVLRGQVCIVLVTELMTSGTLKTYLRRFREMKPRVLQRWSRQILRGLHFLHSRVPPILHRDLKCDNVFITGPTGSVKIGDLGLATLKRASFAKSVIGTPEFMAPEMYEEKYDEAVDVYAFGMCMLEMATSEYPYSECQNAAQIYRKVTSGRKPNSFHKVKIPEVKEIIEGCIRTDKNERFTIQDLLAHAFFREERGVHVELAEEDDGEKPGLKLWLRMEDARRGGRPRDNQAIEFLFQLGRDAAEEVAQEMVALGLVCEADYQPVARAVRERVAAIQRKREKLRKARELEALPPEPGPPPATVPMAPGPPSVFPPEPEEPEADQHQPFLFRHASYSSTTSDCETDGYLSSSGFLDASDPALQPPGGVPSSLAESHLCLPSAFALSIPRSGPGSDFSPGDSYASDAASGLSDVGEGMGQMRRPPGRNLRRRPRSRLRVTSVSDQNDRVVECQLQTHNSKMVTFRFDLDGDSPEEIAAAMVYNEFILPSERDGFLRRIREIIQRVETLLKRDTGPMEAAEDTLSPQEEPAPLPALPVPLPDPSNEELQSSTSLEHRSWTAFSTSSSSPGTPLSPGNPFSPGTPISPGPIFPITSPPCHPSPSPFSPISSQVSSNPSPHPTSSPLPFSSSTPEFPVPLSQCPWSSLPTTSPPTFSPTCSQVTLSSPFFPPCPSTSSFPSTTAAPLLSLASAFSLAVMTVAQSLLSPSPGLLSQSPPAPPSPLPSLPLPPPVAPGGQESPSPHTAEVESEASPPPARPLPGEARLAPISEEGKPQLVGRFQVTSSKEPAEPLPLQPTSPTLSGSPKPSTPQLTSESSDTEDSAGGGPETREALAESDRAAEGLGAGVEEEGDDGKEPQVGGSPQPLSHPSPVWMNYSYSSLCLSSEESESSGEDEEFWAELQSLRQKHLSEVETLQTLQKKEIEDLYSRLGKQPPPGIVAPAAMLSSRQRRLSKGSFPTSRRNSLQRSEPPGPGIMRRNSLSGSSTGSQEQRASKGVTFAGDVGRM
Chain of UniProt Q8WXR4 (whole entry, looked up): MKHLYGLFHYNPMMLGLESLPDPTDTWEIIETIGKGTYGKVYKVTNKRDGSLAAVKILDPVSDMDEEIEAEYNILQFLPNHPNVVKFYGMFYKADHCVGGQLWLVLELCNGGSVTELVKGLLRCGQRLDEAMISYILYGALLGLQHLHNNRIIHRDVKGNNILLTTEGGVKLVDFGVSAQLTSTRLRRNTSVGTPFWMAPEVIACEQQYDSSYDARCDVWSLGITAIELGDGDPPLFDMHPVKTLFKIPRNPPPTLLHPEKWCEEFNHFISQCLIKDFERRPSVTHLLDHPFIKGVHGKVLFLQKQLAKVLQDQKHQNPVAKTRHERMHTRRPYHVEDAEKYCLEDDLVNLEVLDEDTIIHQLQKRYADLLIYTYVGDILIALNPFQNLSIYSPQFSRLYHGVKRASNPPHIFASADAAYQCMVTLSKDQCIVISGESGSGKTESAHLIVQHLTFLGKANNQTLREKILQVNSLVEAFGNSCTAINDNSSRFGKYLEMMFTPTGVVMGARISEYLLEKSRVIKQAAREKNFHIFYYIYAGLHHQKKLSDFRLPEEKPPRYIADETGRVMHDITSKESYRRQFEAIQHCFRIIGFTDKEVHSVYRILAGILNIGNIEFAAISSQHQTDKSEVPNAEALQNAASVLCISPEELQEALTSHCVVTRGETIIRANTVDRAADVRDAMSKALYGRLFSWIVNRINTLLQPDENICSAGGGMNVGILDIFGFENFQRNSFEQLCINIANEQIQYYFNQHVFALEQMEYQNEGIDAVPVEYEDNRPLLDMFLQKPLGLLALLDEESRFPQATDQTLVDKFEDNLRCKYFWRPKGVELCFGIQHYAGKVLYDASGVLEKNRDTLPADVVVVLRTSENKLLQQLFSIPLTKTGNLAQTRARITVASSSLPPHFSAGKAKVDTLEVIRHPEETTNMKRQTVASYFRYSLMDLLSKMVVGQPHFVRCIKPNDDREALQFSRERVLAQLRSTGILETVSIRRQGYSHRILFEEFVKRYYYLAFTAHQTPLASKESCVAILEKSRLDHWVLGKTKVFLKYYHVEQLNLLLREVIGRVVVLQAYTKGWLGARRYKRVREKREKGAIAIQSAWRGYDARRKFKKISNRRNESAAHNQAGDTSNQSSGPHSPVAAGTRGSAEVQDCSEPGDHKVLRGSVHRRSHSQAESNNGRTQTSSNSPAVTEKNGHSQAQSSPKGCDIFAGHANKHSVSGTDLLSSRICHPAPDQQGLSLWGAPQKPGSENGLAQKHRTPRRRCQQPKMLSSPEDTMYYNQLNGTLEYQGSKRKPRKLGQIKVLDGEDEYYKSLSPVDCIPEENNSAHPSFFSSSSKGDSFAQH

Block 1 — species: mouse; sample: microsomes or S9; concentration: 2 µM; time: 0.5 h
Compound | remaining compound
CCOc1ccc(OCC)c(NC(=O)c2cc3sc(Cl)cc3n2CC)c1 | 73.8%
O=S1(=O)CCN(CC2CCCO2)c2c(Oc3ccc(F)cc3)nc(F)c(Cl)c21 (stereo not shown) | 5.87%
O=C(C1CCCC1)N1CCc2nc3cc(C4CCCN(C(=O)C5CCCC5)C4)nn3c(O)c2C1 (stereo not shown) | 6.46%
Cc1onc(-c2ccccc2)c1C(=O)Nc1ccon1 | 1.6%
CC(C)CCn1c(N2CCNCC2)nc2c1c(O)nc(=O)n2C | 74.8%
Cn1cc(C(NC(=O)c2c[nH]c3c(F)cccc3c2=O)[C@H]2C[C@@H](O)C2)cn1 (stereo partly shown) | > 100%
Clc1n[nH]c2c(CN(Cc3ccccc3)CC3CCCO3)cncc12 (stereo not shown) | 87.2%

Block 2 — technique: competition with immobilised ligand; concentration: 0.1 µM
SMILES: CC(C)CC(=O)N1CCc2nc(-c3ccc(Br)cc3)nc(N(C)Cc3ccccc3)c2C1
target | test | remaining binding [%]
Tyrosine-protein kinase ABL1, phosphorylated (ABL1, Homo sapiens, UniProt P00519, T315I) | cell-free assay | 100
Aurora kinase A (AURKA, Homo sapiens, UniProt O14965) | cell-free assay | 72
Myosin-IIIb (MYO3B, Homo sapiens, UniProt Q8WXR4) | binding | 78
SLK (Homo sapiens, UniProt Q9H2G2) | cell-free assay | 100
EGFR (Homo sapiens, UniProt P00533, L858R) | cell-free assay | 94
HASPIN (Homo sapiens, UniProt Q8TF76) | cell-free assay | 100
OXSR1 (Homo sapiens, UniProt O95747) | cell-free assay | 100
ANKK1 (Homo sapiens, UniProt Q8NFD2) | cell-free assay | 100
CDK3 (Homo sapiens, UniProt Q00526) | cell-free assay | 100
WNK4 (Homo sapiens, UniProt Q96J92) | cell-free assay | 100
MAPKAPK5 (Homo sapiens, UniProt Q8IW41) | cell-free assay | 100
PIM1 (Homo sapiens, UniProt P11309) | cell-free assay | 100

Block 3 — cell line: HaCaT; concentration: 100 µM; time: 18 h
SMILES | viability [%]
CC(=O)Nc1cccc(-n2c(=O)n(C3CC3)c(=O)c3c(Nc4ccc(I)cc4F)n(C)c(=O)c(C)c32)c1 | 74.4
CCOC(=O)C1=C(C)NC(C)=C(C(=O)OC)C1c1cccc([N+](=O)[O-])c1 (stereo not shown) | 31.4
COc1cc(C)c(/C=C/C(C)=C/C=C/C(C)=C/C(=O)O)c(C)c1C | 92.5
COc1ccc(C(C)=O)c(O)c1 | 95.5
CS(=O)(=O)Nc1ccc([N+](=O)[O-])cc1Oc1ccccc1 | 93.7
C/C=C(/C(=C/C)c1ccc(O)cc1)c1ccc(O)cc1 | 99.9
C[C@H]1[C@@H](O)O[C@@H]2O[C@@]3(C)CC[C@H]4[C@H](C)CC[C@@H]1[C@@]24OO3 | 62.3
CCCCc1nc(Cl)c(CO)n1Cc1ccc(-c2ccccc2-c2nn[nH]n2)cc1 | 111

Other studies, line by line
SMILES | system | conditions | measurement | result
CC(C)n1cnc(-c2ccc(F)cc2)c1-c1ncc(C(=O)Nc2ccc(N3CCN(C)CC3)cc2)[nH]1 | IPF patients | 30 mg once daily, adverse event | Hypertriglyceridaemia incidence | 0%
